Measured values from different studies.
± marks the error that the study gave.
GLO1: Lactoylglutathione lyase (GLO1, Homo sapiens, UniProt Q04760)
UniProt Q04760, sequence (whole entry, looked up): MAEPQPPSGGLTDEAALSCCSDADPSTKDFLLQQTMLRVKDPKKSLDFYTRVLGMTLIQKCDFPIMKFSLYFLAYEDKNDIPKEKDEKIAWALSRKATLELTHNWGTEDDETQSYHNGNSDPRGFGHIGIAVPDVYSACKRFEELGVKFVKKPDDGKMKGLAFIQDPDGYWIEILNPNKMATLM
Succinate dehydrogenase complex: Succinate dehydrogenase complex (Sus scrofa, UniProt A5GZW8+D0VWV4+Q007T0+Q0QF01)
UniProt Q007T0, sequence (whole entry, looked up): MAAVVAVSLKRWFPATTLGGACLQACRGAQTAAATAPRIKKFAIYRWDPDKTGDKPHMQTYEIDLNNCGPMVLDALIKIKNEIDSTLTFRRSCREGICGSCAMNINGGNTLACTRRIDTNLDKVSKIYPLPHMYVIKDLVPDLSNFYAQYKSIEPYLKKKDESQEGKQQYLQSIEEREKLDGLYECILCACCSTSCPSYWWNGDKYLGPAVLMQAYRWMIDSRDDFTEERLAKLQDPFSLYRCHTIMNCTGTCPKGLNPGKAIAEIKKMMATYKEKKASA
UniProt Q0QF01, sequence (whole entry, looked up): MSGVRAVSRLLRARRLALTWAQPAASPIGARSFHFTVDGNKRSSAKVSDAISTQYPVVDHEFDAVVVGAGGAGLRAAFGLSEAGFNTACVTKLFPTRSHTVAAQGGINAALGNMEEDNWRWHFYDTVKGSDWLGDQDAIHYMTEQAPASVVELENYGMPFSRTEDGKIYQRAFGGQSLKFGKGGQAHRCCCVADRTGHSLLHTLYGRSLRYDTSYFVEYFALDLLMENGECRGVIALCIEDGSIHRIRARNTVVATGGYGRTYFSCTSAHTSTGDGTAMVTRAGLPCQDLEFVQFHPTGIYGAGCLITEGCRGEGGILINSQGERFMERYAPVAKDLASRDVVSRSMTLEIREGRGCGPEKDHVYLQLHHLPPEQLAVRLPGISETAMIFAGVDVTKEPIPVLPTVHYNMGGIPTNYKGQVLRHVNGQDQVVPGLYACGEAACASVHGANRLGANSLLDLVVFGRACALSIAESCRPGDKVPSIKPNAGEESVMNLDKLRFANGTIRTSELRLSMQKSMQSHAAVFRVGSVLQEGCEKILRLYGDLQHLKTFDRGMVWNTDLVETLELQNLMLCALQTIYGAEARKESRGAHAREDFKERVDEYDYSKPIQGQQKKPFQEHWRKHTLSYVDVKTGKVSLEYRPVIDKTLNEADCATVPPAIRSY
UniProt D0VWV4, sequence (whole entry, looked up): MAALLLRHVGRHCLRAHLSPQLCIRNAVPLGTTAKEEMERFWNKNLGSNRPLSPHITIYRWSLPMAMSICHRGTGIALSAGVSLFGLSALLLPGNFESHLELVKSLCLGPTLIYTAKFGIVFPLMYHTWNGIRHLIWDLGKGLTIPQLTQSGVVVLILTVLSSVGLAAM
UniProt A5GZW8, sequence (whole entry, looked up): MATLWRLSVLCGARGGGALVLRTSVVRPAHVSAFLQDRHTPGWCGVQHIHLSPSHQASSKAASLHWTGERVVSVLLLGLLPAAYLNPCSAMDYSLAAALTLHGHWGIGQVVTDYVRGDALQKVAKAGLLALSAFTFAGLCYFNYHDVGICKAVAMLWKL
GSTO1: Glutathione S-transferase omega-1 (GSTO1, Homo sapiens, UniProt P78417)
UniProt P78417, sequence (whole entry, looked up): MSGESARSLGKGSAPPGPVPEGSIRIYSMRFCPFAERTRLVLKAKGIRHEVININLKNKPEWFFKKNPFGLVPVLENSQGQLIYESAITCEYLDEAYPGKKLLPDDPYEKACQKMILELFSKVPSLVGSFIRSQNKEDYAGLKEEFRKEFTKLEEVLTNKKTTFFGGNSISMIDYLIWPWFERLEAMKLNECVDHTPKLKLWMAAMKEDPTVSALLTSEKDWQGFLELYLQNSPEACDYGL
AGER: Advanced glycosylation end product-specific receptor (AGER, Homo sapiens, UniProt Q15109)
UniProt Q15109, sequence (whole entry, looked up): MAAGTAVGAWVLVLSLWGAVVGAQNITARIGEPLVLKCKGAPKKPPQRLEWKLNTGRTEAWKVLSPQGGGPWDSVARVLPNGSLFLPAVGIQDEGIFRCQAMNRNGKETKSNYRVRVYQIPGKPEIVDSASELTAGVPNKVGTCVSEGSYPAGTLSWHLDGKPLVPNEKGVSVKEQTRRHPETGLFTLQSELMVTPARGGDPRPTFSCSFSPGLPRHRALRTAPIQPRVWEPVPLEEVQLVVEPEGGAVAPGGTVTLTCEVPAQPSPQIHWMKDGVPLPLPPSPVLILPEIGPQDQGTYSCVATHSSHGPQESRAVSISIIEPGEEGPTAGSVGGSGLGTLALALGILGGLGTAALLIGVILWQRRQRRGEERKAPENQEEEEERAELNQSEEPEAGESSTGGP
UniProt P45984, sequence (whole entry, looked up): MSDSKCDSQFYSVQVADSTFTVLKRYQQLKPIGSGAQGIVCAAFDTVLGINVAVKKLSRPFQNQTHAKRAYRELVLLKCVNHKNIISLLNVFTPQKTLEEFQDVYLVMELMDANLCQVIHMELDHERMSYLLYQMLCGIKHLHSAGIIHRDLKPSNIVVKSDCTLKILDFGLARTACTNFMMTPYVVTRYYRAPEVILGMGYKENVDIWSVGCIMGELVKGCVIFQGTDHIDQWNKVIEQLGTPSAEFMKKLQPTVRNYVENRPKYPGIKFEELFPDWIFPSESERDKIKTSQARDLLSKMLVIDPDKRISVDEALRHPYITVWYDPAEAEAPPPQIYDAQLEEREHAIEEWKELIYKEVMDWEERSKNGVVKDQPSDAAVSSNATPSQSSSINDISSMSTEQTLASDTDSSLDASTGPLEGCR
UniProt P16234, sequence (whole entry, looked up): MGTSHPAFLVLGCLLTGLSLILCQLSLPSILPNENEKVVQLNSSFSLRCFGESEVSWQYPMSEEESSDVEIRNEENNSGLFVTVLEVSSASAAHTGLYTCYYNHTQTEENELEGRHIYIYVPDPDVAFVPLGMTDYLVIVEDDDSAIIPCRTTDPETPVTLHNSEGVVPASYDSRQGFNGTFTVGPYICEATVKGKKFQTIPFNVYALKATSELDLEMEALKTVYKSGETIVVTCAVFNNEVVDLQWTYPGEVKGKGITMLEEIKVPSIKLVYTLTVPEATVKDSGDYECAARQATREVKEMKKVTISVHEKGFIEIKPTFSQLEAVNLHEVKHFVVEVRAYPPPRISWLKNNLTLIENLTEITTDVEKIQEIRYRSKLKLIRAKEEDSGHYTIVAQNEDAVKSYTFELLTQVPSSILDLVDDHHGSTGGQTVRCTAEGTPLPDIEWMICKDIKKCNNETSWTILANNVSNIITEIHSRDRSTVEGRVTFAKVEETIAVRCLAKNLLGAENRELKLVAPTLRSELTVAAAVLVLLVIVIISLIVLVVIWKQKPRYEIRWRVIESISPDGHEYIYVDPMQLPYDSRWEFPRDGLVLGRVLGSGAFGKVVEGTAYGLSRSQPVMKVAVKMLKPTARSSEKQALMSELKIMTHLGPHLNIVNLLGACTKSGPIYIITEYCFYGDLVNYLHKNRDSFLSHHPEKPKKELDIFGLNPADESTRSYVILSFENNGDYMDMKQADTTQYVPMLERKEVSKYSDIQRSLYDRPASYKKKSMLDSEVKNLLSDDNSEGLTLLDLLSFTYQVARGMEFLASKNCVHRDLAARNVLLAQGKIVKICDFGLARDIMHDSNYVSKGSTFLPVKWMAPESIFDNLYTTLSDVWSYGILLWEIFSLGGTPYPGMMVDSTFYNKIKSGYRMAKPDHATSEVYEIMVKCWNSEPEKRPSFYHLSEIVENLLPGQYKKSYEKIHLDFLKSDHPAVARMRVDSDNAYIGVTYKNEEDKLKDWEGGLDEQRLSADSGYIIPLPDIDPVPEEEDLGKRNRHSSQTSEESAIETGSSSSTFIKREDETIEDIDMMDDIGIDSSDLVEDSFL
UniProt Q9Y3R4, sequence (whole entry, looked up): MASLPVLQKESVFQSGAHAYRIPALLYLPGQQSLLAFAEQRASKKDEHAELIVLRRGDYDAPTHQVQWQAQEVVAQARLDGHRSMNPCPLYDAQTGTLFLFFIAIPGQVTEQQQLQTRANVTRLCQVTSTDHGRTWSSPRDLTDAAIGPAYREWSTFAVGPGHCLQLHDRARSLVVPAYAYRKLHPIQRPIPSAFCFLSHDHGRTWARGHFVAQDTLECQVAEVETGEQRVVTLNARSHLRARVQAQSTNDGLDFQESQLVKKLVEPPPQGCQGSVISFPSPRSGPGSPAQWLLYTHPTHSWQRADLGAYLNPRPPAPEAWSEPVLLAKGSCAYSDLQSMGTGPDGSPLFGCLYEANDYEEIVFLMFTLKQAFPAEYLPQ
UniProt P21397, sequence (whole entry, looked up): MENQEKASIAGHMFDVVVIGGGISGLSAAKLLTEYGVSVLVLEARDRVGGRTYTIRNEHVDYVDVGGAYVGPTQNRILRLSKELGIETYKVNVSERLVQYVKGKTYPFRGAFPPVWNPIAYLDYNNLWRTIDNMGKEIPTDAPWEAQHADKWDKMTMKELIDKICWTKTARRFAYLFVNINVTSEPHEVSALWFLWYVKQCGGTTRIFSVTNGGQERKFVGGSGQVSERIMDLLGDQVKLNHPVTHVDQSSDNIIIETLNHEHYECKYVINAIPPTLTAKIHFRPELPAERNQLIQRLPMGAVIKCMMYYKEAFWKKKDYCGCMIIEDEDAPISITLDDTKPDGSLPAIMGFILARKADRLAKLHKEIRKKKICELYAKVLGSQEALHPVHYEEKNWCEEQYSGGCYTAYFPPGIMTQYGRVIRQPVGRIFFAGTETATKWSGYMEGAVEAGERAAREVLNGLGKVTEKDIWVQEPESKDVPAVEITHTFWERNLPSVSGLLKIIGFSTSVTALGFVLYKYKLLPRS
UniProt Q05097, sequence (whole entry, looked up): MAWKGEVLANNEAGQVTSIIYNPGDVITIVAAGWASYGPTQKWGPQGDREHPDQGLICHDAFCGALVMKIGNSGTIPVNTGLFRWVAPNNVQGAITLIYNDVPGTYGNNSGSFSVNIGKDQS

CCCN(CC(=O)N(CCC)CC(=O)N(CCC)CC(=O)N(CCC)CC(=O)N(CC(=O)N(CCC)CC(=O)N(CCC)CC(=O)N(CCC)CC(=O)N(CCC)CC(=O)N(CC(=O)N(CCC)CC(=O)N(CCC)CC(=O)N(CCC)CC(=O)N(CCC)CC(=O)N(CC(N)=O)Cc1cn(CCCNC(=O)CCCOc2cccc(-c3nc4ccc(-c5nc6ccc(N7CCN(C)CC7)cc6[nH]5)cc4[nH]3)c2)nn1)Cc1cn(CCCNC(=O)CCCOc2cccc(-c3nc4ccc(-c5nc6ccc(N7CCN(C)CC7)cc6[nH]5)cc4[nH]3)c2)nn1)Cc1cn(CCCNC(=O)CCCOc2cccc(-c3nc4ccc(-c5nc6ccc(N7CCN(C)CC7)cc6[nH]5)cc4[nH]3)c2)nn1)C(=O)CNCc1cn(CCCNC(=O)CCCOc2cccc(-c3nc4ccc(-c5nc6ccc(N7CCN(C)CC7)cc6[nH]5)cc4[nH]3)c2)nn1  propidium iodide-only positive cells (C2C12; flow cytometry; 5 µM, 14 h): 1.4%
O=C(O)c1ccc(/N=N/c2cc3ccccc3c(C(=O)O)c2O)cc1  inhibition (GLO1; enzyme activity, inhibitor; 25 µM): 44.9%
CC[C@H](C)[C@H](NC(=O)[C@H]([C@@H](C)CC)N(C)C(C)=O)C(=O)N[C@H](C(=O)N[C@@H](CC(C)C)C(=O)[C@@]1(C)CO1)[C@@H](C)O  inhibition (Proteasome subunit beta type-5 (Babesia divergens, UniProt A0AAD9GDK3); proteasome activity; Babesia divergens, parasite lysate; 1 µM, added: Suc-LLVY-AMC substrate): > 90%
NS(=O)(=O)Nc1ncnc(OCCOc2ncc(Br)cn2)c1-c1ccc(Br)cc1  Km (M6 formation; male Beagle dog, liver microsomes; 5 mg/kg daily for 4 weeks): 8.6 ± 0.9 µM
Cc1nn(C)cc1-c1nc2ccc3[nH]ncc3c2c2c1CCCC2  inhibition (FLT3 (Homo sapiens, UniProt P36888, ITD); enzyme activity, inhibitor, ADP detection; 0.1 µM): 21%
O=C(Nc1ccccc1Nc1ccccc1)c1cccnc1C(F)(F)F  inhibition (Succinate dehydrogenase complex; enzyme activity, double-antibody sandwich ELISA; 2 µM): 33.6%
CC(=O)N[C@H]1NC[C@H](C(=O)O)[C@H](O)[C@@H]1O  inhibition (Sialidase-2 (Homo sapiens, UniProt Q9Y3R4); enzyme activity, inhibitor, fluorescence; 300 µM, pH 4): 89%
COc1cc(OC2CCN(C)CC2)ccc1Nc1ncc2c(n1)n(C1CCCC1)c(=O)n2C  inhibition (MAPK9 (Homo sapiens, UniProt P45984); enzyme activity, inhibitor; 1 µM): > 40%
CC(=O)C12NC(C)(C)CC1(C)C(=O)C1=C2c2c(c3c4n2C(C)(C)CC2=C4C4(CC(C)(C)NC(C)(C4)C2=O)CC3(C)C)C(=O)C(C)(C)N1 (single isomer, unassigned; (-))  inhibition (SCN10A (Homo sapiens, UniProt Q9Y5Y9); sodium current, whole-cell patch clamp; HEK293T; 10 µM): 20 to 50%
CC[C@H]1[C@@H](O)[C@@H]2[C@H](CC[C@]3(C)[C@@H]([C@H](C)CCOS(=O)(=O)[O-])CC[C@@H]23)[C@@]2(C)CC[C@@H](O)C[C@@H]12.[Na+]  steatosis score (histology; ob/ob NASH mouse model, liver; oral, 3 mg/kg once daily, before treatment, baseline of 8 week study, scale 0 to 3; direction not given): 2.9 ± 0.1
O=C(CCl)N(CCNC(=O)C(F)(F)F)c1cccc([N+](=O)[O-])c1  inhibition (GSTO1; probe labelling, gel-based competitive ABPP; MDA-MB-435 soluble proteome; 100 nM, added: SE-Rh probe): 35%
N#Cc1ccc(O)c(O)c1  inhibition (lecA (Pseudomonas aeruginosa, UniProt Q05097); ligand displacement, FP; 4 mM): 7%
COc1ccc(N2C(=O)CSC2c2cccc(Br)c2)c(OC)c1 (stereo not drawn)  inhibition (ACTR2/ACTR3 (Bos taurus, UniProt A7MB62+P61157); actin polymerization rate, pyrenyl-actin; concentration not given): inhibited
COc1cc(CNC(=O)C[C@H](C)CCC=C(C)C)ccc1OCc1cn(-c2ccc(Cl)cc2Cl)nn1  growth percent (Hs-578T breast cancer cells; SRB; 10 µM, 48 h): 48.4%
O=C(NC1CCCCC1)C(c1cccnc1)N(C(=O)CCl)c1ccc(F)cc1 (racemic)  inhibition (GSTO1; probe labelling, gel-based competitive ABPP; MDA-MB-435 soluble proteome; 100 nM, added: SE-Rh probe): 75%
COC(=O)CCSc1nc2n(n1)C(c1cccc(OC)c1)C(C(=O)Nc1cncc(C)c1)=C(C)N2 (stereo not drawn)  inhibition (MTOR (Homo sapiens, UniProt P42345); enzyme activity, inhibitor, TR-FRET; 3 µM): 96.4%
COc1ccc(NC(=O)c2cc3ccc(Cl)cc3s2)cc1  inhibition (AGER; binding to AGE-BSA, competitive ELISA; 100 µM, 60 min): 29%
COc1ncccc1C(=O)Nc1ccccc1Nc1ccccc1  inhibition (Succinate dehydrogenase complex; enzyme activity, double-antibody sandwich ELISA; 2 µM): 40%
NS(=O)(=O)c1ccc(/N=N/c2cc3ccccc3c(C(=O)O)c2O)cc1  inhibition (GLO1; enzyme activity, inhibitor; 25 µM): 44.4%
O=C(c1cc2ccc(Cl)cc2s1)N(c1ccc(OCCN2CCCC2)cc1)c1ccc(OCCN2CCCC2)cc1  inhibition (AGER; binding to AGE-BSA, competitive ELISA; 100 µM, 60 min): 97%
O=C(O[C@@H]1Cc2c(O)cc(O)cc2O[C@@H]1c1ccc(O)c(O)c1)c1ccc(O)cc1  inhibition (maltase, rat; enzyme activity, inhibitor; rat intestinal brush border vesicles; 10 µM): 67.6%
COc1ccc(CCCN[C@H]2CCC[C@@H]2CN[C@@H]2CCC[C@H]2CNCCCCN[C@@H]2CCC[C@H]2CN)cc1  Ki (MAOA (Homo sapiens, UniProt P21397); enzyme activity, inhibitor; added: tyramine 50 µM): 330 ± 31 µM
COc1cc(C(=O)NC2CCC(N3CCN(CC4CCC5(CCCC5)C4)CC3)CC2)c(F)cc1Nc1ncc2c(n1)N(C1CCCC1(F)F)CC(F)(F)C(=O)N2C (stereo not drawn)  inhibition (PDGFRA (Homo sapiens, UniProt P16234); cell-free assay, TR-FRET; 10 µM): 0.61%
COc1cc(CNC(=O)C[C@H](C)CCC=C(C)C)ccc1OCc1cn(-c2ccc(Br)cc2)nn1  growth percent (Hs-578T breast cancer cells; SRB; 10 µM, 48 h): 73.8%
N#Cc1ccc(NC(=O)c2cc3ccc(Cl)cc3s2)cc1  inhibition (AGER; binding to AGE-BSA, competitive ELISA; 100 µM, 60 min): 26%
Cn1c(=O)oc2ccc(-c3ccc(CC(C#N)NC(=O)C4CNCCCO4)c(F)c3)cc21 (stereo not drawn)  treatment-related adverse event incidence (refers to: macule; human volunteers; oral, 40 mg, single ascending dose fed): 0%
[64Cu+2].c1cnc(CNCc2ccc(CN3CCCN4CCNCCCN(CC4)CC3)cc2)nc1  tissue uptake (CXCR4; NOD/SCID mouse, U87 and U87-stb-CXCR4 xenografts, heart; iv, 90 min, ex vivo, added: AMD3465 25 mg/kg sc before tracer): 0.85 ± 0.17 %ID/g

A few entries again:
N#Cc1ccc(O)c(O)c1  inhibition (lecA (Pseudomonas aeruginosa, UniProt Q05097); ligand displacement, FP; 4 mM): 7%
COc1cc(CNC(=O)C[C@H](C)CCC=C(C)C)ccc1OCc1cn(-c2ccc(Br)cc2)nn1  growth percent (Hs-578T breast cancer cells; SRB; 10 µM, 48 h): 73.8%
COc1cc(CNC(=O)C[C@H](C)CCC=C(C)C)ccc1OCc1cn(-c2ccc(Cl)cc2Cl)nn1  growth percent (Hs-578T breast cancer cells; SRB; 10 µM, 48 h): 48.4%
O=C(c1cc2ccc(Cl)cc2s1)N(c1ccc(OCCN2CCCC2)cc1)c1ccc(OCCN2CCCC2)cc1  inhibition (AGER; binding to AGE-BSA, competitive ELISA; 100 µM, 60 min): 97%
O=C(Nc1ccccc1Nc1ccccc1)c1cccnc1C(F)(F)F  inhibition (Succinate dehydrogenase complex; enzyme activity, double-antibody sandwich ELISA; 2 µM): 33.6%
